Experimental data from different studies.
A part holds a random share of what one study measured.
UniProt Q96RR4, sequence (whole entry, looked up): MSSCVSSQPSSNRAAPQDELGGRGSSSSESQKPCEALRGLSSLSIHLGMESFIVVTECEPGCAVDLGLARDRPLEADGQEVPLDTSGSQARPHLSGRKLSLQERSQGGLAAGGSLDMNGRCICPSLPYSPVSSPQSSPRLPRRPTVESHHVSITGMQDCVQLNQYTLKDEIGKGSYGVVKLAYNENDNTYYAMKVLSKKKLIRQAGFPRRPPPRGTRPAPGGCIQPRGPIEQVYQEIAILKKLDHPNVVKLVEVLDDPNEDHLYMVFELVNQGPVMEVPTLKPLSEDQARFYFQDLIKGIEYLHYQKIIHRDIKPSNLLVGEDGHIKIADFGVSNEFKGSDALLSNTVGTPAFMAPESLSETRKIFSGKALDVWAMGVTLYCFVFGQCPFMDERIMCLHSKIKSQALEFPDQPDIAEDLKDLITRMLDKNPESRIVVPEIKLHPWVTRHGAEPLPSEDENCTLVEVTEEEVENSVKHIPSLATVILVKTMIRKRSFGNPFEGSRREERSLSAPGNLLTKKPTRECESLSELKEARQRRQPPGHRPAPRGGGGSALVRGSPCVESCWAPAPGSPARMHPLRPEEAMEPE
UniProt P11802, sequence (whole entry, looked up): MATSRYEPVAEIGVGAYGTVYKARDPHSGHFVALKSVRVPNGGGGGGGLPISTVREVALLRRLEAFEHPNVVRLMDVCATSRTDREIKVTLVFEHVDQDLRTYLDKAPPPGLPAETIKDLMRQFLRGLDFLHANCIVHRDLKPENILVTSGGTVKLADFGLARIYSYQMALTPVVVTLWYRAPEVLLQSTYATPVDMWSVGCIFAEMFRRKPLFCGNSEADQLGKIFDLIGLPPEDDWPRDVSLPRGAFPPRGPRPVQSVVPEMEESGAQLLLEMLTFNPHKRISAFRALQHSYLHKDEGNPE
UniProt Q13557, sequence (whole entry, looked up): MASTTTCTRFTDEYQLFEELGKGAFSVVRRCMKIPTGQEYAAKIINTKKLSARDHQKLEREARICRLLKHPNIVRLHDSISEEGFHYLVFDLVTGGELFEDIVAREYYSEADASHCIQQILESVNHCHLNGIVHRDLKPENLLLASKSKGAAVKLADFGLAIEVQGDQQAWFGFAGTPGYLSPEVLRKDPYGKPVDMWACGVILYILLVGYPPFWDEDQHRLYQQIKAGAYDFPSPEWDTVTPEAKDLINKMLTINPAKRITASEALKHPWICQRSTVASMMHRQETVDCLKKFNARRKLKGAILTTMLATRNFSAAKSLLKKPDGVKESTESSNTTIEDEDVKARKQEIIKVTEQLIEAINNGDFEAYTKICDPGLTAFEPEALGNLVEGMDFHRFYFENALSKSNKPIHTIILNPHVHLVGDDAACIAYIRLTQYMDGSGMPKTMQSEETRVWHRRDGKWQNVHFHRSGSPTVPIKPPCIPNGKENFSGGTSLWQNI
UniProt P05771, sequence (whole entry, looked up): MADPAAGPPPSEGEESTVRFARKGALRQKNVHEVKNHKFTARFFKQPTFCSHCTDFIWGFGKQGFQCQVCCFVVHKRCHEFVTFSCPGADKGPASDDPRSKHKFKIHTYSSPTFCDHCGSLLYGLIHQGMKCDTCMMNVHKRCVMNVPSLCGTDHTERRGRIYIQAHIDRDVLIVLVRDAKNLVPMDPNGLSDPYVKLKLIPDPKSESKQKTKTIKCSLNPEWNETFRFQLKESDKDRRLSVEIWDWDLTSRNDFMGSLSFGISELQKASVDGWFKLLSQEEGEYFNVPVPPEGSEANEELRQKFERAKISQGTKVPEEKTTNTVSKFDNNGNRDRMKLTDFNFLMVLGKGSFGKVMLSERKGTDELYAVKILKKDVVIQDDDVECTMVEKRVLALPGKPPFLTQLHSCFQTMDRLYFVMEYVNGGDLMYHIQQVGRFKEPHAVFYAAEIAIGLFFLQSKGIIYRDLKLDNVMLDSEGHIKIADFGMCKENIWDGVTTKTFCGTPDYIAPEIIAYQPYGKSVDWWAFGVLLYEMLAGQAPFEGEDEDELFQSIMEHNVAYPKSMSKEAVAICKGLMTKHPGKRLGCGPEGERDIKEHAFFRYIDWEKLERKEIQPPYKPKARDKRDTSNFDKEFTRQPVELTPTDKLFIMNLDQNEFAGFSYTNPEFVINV
UniProt Q6XUX3, sequence (whole entry, looked up): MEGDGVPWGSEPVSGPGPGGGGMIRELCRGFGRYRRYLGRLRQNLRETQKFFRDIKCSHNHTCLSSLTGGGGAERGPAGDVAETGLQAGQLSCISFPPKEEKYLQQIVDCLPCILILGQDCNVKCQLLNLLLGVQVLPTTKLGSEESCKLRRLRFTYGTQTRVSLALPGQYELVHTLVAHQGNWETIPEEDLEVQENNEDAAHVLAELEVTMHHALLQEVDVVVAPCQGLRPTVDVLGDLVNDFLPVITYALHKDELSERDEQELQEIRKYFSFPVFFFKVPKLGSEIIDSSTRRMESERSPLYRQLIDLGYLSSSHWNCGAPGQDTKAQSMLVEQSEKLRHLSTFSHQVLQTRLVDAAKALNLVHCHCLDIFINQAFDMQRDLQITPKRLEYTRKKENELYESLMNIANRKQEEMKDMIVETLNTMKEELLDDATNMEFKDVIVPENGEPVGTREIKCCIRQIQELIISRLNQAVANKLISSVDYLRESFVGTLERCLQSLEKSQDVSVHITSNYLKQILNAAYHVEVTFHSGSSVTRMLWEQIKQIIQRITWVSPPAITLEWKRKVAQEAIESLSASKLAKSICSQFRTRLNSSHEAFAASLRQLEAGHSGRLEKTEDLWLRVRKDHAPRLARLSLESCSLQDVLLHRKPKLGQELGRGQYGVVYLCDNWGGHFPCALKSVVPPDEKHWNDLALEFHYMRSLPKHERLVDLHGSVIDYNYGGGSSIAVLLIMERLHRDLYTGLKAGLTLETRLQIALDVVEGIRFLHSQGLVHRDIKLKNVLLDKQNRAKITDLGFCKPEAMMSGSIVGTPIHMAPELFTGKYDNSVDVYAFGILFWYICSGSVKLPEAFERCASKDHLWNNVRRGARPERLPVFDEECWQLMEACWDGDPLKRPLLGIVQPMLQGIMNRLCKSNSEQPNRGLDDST
UniProt Q16566, sequence (whole entry, looked up): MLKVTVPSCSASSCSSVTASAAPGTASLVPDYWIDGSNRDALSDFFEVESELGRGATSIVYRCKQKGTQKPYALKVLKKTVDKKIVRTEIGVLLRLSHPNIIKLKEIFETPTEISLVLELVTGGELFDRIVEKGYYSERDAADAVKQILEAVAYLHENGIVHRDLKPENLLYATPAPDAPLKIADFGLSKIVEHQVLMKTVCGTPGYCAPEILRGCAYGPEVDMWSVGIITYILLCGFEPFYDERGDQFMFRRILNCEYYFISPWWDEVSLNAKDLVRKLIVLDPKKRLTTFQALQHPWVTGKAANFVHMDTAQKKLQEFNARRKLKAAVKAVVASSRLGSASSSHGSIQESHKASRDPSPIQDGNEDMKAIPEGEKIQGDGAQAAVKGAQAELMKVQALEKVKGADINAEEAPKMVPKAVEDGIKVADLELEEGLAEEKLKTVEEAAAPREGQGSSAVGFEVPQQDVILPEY
UniProt O14920, sequence (whole entry, looked up): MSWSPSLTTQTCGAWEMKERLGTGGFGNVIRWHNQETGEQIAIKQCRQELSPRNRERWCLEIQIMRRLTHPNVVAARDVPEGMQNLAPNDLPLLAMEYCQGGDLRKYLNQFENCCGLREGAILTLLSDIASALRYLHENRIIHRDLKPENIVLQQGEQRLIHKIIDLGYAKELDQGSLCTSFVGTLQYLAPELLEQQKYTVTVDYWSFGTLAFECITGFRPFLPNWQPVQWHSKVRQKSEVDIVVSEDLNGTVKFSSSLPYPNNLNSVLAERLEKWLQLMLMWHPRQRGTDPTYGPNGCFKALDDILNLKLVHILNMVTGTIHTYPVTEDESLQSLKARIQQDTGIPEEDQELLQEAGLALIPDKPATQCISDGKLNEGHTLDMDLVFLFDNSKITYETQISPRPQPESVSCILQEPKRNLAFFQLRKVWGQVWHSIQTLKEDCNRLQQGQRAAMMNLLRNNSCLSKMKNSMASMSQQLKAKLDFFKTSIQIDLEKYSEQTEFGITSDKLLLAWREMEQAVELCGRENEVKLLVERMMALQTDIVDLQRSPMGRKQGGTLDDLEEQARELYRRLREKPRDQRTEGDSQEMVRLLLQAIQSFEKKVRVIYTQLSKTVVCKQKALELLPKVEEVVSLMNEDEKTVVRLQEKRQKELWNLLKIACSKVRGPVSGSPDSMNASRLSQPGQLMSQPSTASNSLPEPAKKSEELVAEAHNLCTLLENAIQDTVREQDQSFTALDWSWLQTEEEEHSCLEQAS
UniProt P27037, sequence (whole entry, looked up): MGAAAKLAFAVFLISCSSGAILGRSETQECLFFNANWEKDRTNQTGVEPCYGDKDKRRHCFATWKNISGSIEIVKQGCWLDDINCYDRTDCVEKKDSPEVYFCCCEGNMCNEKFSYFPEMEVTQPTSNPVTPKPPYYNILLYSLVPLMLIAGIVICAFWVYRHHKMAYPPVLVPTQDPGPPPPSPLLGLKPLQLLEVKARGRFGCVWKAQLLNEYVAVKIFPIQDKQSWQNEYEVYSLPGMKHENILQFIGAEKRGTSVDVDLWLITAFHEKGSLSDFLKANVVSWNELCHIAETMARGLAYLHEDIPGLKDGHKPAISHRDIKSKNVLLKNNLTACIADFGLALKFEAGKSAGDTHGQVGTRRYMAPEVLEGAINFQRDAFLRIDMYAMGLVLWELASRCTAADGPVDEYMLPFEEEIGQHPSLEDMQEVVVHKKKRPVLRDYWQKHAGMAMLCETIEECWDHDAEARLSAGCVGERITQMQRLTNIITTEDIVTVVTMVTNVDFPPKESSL
UniProt Q00535, sequence (whole entry, looked up): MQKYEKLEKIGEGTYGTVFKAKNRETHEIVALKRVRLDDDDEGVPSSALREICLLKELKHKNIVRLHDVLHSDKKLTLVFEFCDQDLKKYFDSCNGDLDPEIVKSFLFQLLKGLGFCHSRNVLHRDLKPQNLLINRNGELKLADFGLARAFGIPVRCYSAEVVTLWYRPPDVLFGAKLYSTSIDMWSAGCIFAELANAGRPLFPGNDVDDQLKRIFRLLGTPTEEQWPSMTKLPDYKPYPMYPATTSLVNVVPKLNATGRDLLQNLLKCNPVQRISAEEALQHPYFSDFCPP

Block 1
Structure (SMILES): CC(C)n1cnc(-c2ccc(F)cc2)c1-c1ncc(C(=O)Nc2ccc(N3CCN(C)CC3)cc2)[nH]1
Technique: phase 2a trial
Species: idiopathic pulmonary fibrosis patients
dose | setting | patients with lower respiratory infection [%]
30 mg once daily | grade 1 | 0
60 mg once daily | grade 3 | 0
30 mg once daily | grade 5 | 0
60 mg once daily | grade 1 | 0
30 mg once daily | grade 4 | 0
all dose arms pooled | grade 3 | 0
60 mg once daily | grade 4 | 0

Block 2
Species: human
Matrix: microsomes or S9
Tested at: 2 µM
Time: 0.5 h
Compound | remaining compound [%]
CC(C)Cc1ccc(C(C)C(=O)Nc2ccc(O)cc2C(=O)O)cc1 (stereo not drawn) | 2.8
O=C1c2ccsc2CCC1N1CCN(c2ncccn2)CC1 (stereo not drawn) | 5.29
CC(C)N(c1cnn(C)c1)S(=O)(=O)c1cn(C(C)C)cn1 | 97
CC1(C)CC(=O)C2=C(C1)c1c(ccc3ccccc13)NC2c1cccnc1 (stereo not drawn) | 46
COC(=O)c1cc(Cl)c(NC(=O)c2cc(OC)c(OC)c(OC)c2)cc1OC | 35.2
Cc1ccccc1-c1noc(-c2ccc[nH]c2=O)n1 | 88.4
O=C(c1ccc2ncccc2c1)c1cncc(Br)c1Cl | 0
Cn1nnc(-c2ccc(OCC(=O)Nc3ccc4[nH]ccc4c3)cc2)n1 | 45.9
CCNC(=O)C(C)N(c1ccccc1)S(C)(=O)=O (stereo not drawn) | 92.7

Block 3
Compound: N#C/C(=C(/N)SC1C=CC=CC1)c1cccc(C(O)c2ccncc2)c1 (stereo not drawn)
Read-out: enzyme activity
Mode: inhibitor
Tested at: 0.5 µM
Reference: control
target | remaining activity
IKBKE (Homo sapiens, UniProt Q14164) | 97.1%
STK11 (Homo sapiens, UniProt Q15831) | 101%
MAPK9 (Homo sapiens, UniProt P45984) | 117%
Cyclin-dependent kinase 4, with cyclin D1 (CDK4, Homo sapiens, UniProt P11802) | 101%
NEK2 (Homo sapiens, UniProt P51955) | 87.7%
OXSR1 (Homo sapiens, UniProt O95747) | 91.3%
DAPK1 (Homo sapiens, UniProt P53355) | 106%
STK39 (Homo sapiens, UniProt Q9UEW8) | 82.5%
PRKACA (Homo sapiens, UniProt P17612) | 97.1%
CHEK2 (Homo sapiens, UniProt O96017) | 98.3%
STK10 (Homo sapiens, UniProt O94804) | 89.9%
CAMKK2 (Homo sapiens, UniProt Q96RR4) | 82.8%
PRKCA (Homo sapiens, UniProt P17252) | 99.5%
CAMK2D (Homo sapiens, UniProt Q13557) | 108%
Protein kinase C beta type, isoform beta-I (PRKCB, Homo sapiens, UniProt P05771) | 93.2%
TGFBR2 (Homo sapiens, UniProt P37173) | 118%
Tyrosine-protein kinase Lyn, isoform B (LYN, Homo sapiens, UniProt P07948) | 97.9%
MAP3K3 (Homo sapiens, UniProt Q99759) | 107%
cGMP-dependent protein kinase 1, isoform beta (PRKG1, Homo sapiens, UniProt Q13976) | 113%
GRK3 (Homo sapiens, UniProt P35626) | 99%
Cyclin-dependent kinase 5, with p25 (CDK5, Homo sapiens, UniProt Q00535) | 83.8%
IKBKB (Homo sapiens, UniProt O14920) | 105%

Block 4
SMILES: Nc1cnc(N2CCc3cc(S(=O)(=O)Nc4c(F)cc(Cl)cc4F)cc(N4CCCC4=O)c32)nc1
Read-out: cell-free assay
Technique: competition with immobilised ligand
Tested at: 1 µM
target | remaining binding
Tyrosine-protein kinase ABL1, phosphorylated (ABL1, Homo sapiens, UniProt P00519) | 97%
NEK4 (Homo sapiens, UniProt P51957) | 97%
CLK2 (Homo sapiens, UniProt P49760) | 100%
CAMK1 (Homo sapiens, UniProt Q14012) | 88%
DSTYK (Homo sapiens, UniProt Q6XUX3) | 100%
WNK4 (Homo sapiens, UniProt Q96J92) | 100%
ERBB4 (Homo sapiens, UniProt Q15303) | 100%
Cyclin-dependent kinase 4, with cyclin D3 (CDK4, Homo sapiens, UniProt P11802) | 86%
EGFR (Homo sapiens, UniProt P00533, A750P/del747-749) | 63%
ACVR2A (Homo sapiens, UniProt P27037) | 67%
FLT3 (Homo sapiens, UniProt P36888, K663Q) | 97%
EGFR (Homo sapiens, UniProt P00533, del747-752/P753S) | 71%
GAK (Homo sapiens, UniProt O14976) | 100%
PDGFRB (Homo sapiens, UniProt P09619) | 100%
Tyrosine-protein kinase ABL1, phosphorylated (ABL1, Homo sapiens, UniProt P00519, Y253F) | 94%
STK32A (Homo sapiens, UniProt Q8WU08) | 80%
FLT3 (Homo sapiens, UniProt P36888) | 81%
CAMKK2 (Homo sapiens, UniProt Q96RR4) | 100%
FLT3 (Homo sapiens, UniProt P36888, ITD) | 92%
CSNK1E (Homo sapiens, UniProt P49674) | 89%
CDK15 (Homo sapiens, UniProt Q96Q40) | 80%
HIPK3 (Homo sapiens, UniProt Q9H422) | 100%
CAMK4 (Homo sapiens, UniProt Q16566) | 96%
CAMK2B (Homo sapiens, UniProt Q13554) | 100%
FLT3 (Homo sapiens, UniProt P36888, D835Y) | 100%

A few entries again (block 4):
target | remaining binding
ERBB4 (Homo sapiens, UniProt Q15303) | 100%
CDK15 (Homo sapiens, UniProt Q96Q40) | 80%
GAK (Homo sapiens, UniProt O14976) | 100%
Tyrosine-protein kinase ABL1, phosphorylated (ABL1, Homo sapiens, UniProt P00519) | 97%
